Results from different studies.
Compare with care: the assays were run in different laboratories. ± gives the spread as reported.
UniProt Q14315, sequence (whole entry, looked up): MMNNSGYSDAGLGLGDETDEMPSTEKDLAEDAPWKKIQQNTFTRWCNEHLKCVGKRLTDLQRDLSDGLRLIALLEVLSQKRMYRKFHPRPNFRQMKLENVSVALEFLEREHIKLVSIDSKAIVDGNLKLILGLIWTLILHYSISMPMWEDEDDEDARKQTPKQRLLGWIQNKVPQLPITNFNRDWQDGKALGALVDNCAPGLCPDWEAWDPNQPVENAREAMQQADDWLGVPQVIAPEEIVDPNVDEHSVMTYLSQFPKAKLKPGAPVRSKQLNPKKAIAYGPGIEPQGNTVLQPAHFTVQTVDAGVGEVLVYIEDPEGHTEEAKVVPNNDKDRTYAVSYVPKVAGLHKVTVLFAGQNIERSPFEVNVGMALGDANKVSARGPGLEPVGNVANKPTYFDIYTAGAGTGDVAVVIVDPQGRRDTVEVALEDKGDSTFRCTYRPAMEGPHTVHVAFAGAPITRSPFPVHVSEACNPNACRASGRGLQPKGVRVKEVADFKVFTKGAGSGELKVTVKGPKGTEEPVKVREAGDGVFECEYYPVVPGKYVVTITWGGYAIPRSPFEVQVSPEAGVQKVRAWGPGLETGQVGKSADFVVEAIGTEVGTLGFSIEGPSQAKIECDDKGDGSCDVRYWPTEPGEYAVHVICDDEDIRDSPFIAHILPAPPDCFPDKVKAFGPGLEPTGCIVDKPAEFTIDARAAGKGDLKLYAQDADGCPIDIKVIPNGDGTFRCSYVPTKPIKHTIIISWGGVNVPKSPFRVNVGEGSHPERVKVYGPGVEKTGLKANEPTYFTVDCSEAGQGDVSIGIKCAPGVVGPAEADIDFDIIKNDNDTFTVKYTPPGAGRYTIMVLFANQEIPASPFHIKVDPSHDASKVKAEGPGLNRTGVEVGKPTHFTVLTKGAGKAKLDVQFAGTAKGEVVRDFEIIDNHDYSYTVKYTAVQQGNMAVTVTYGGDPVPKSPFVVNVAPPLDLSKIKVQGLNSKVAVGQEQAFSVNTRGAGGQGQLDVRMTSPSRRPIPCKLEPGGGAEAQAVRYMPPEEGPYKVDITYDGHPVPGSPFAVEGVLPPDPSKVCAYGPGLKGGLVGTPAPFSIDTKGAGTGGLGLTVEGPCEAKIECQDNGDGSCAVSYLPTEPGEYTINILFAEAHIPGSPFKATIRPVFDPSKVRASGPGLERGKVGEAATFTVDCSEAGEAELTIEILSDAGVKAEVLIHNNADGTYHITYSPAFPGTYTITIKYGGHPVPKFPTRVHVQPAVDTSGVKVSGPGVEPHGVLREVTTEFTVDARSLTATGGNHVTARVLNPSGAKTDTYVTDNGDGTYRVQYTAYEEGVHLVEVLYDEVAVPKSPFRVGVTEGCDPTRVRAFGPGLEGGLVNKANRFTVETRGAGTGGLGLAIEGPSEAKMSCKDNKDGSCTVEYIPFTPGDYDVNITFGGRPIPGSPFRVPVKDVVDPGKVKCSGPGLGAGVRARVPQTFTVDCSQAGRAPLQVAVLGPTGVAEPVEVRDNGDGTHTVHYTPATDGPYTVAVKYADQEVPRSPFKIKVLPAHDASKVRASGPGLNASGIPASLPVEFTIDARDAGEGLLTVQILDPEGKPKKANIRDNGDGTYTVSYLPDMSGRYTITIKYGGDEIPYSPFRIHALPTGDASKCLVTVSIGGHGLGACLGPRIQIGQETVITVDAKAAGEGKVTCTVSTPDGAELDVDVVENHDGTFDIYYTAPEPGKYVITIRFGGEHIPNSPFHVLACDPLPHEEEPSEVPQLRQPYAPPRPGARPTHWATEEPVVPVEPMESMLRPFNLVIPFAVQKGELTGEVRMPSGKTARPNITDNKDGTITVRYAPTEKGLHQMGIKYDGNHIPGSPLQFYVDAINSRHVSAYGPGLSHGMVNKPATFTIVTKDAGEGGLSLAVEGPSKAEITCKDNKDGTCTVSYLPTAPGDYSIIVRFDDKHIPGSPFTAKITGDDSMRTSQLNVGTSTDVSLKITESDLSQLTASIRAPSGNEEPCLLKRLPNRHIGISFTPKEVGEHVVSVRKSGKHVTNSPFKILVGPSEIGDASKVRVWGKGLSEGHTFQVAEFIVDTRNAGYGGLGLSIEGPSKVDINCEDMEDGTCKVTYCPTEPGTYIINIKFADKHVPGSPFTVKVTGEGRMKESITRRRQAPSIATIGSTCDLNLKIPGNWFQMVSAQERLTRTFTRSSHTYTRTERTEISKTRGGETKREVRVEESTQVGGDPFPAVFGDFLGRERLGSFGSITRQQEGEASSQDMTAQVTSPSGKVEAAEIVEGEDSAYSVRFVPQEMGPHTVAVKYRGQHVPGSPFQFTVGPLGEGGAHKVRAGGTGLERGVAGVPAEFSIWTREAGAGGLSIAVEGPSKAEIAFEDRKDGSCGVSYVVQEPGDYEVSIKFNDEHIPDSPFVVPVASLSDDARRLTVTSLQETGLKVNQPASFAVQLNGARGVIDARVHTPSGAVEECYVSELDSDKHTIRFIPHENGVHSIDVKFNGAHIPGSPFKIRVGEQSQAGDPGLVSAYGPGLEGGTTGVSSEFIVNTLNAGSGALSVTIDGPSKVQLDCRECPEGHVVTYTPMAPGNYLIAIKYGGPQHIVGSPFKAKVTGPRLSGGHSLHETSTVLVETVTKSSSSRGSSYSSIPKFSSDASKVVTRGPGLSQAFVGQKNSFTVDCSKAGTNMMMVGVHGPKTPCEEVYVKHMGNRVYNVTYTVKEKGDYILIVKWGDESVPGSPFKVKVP
UniProt Q9NRM7, sequence (whole entry, looked up): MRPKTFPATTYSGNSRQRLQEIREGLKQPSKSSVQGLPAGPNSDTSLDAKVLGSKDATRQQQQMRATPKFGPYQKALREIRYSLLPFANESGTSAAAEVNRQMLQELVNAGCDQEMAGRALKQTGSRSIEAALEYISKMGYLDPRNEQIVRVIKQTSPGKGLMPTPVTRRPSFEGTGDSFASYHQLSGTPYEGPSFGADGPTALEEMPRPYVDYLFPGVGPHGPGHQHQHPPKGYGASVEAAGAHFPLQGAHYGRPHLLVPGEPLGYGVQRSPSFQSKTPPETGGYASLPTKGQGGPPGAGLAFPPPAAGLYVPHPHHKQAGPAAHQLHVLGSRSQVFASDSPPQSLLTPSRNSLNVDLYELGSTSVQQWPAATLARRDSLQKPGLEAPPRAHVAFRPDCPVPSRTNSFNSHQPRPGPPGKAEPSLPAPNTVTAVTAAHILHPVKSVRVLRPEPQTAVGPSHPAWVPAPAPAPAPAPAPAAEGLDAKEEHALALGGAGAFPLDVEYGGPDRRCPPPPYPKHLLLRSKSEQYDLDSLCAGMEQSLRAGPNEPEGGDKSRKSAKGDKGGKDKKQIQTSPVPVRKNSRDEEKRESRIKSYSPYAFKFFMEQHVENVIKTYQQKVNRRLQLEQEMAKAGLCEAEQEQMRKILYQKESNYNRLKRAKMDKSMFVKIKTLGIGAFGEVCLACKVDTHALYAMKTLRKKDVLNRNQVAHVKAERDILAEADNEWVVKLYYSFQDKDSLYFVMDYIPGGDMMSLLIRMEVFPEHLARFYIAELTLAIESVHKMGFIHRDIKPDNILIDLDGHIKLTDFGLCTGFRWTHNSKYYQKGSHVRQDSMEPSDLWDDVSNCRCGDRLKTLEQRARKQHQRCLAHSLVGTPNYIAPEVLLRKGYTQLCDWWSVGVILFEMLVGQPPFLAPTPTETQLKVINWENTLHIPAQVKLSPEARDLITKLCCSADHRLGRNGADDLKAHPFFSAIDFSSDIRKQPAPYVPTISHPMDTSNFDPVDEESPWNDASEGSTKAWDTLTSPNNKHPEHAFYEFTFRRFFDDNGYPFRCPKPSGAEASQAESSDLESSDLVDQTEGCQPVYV
UniProt Q8NFV4, sequence (whole entry, looked up): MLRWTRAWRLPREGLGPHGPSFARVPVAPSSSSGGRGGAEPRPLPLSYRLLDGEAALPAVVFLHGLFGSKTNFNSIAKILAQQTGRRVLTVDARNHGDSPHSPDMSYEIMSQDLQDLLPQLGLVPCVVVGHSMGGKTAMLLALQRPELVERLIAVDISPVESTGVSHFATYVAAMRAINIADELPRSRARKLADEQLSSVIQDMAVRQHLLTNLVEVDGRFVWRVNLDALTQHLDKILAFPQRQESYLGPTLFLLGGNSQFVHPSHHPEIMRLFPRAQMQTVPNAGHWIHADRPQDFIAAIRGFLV
UniProt P30550, sequence (whole entry, looked up): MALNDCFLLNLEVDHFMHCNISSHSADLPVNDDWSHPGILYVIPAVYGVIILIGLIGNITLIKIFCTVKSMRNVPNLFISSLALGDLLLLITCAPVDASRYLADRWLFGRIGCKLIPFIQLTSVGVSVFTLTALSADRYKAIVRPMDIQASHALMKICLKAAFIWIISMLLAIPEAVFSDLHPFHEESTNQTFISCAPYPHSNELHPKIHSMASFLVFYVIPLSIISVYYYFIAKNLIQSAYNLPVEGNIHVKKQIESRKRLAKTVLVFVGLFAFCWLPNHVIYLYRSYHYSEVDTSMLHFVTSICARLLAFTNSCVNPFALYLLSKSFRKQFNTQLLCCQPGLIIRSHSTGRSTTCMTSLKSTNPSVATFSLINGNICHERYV

Under “grade ≥3 anaemia incidence”, Cn1cncc1-c1c(F)cncc1NC(=O)c1c(N)nn2cc(F)cnc12 is recorded as 33% (human patients; oral, 220 mg once daily).
The remaining binding of C[C@H]1CN(c2n[nH]c3nc(N[C@H]4CC[C@H](NS(=O)(=O)CCC(F)(F)F)CC4)ncc23)CCO1 is reported as 0.93 (Filamin-C (FLNC, Homo sapiens, UniProt Q14315); Kinobeads competition, measured: FLNC; 0.032 µM, unit not given; reference: vehicle).
With CCN1[C@@H](C(=O)NC23CCC(C(=O)O)(CC2)CC3)[C@H](c2cccc(Cl)c2F)[C@]2(C(=O)Nc3cc(Cl)ccc32)C12CCCCC2 the Ageusia incidence was 4.8% (patients with advanced solid tumours; oral, dose not given, all doses).
For [O-][S+]1CCc2nc(N3CCC(c4ncc(Cl)cn4)CC3)nc(NC3(CO)CCC3)c21 (centres unmarked), “subjects with adverse events” read 10% (phase I trial, measured: frequent bowel movements; idiopathic pulmonary fibrosis patients; 18 mg twice daily).
For CC(C)[C@@H]1NC(=O)CNC(=O)[C@H](CC(N)=O)NC(=O)[C@H](CCCNC(=N)N)NC(=O)[C@H](Cc2ccc(O)cc2)NC(=O)[C@H](C(C)C)NC(=O)[C@@H](NC(=O)[C@@H](NC(=O)[C@H](CC(N)=O)NC(=O)[C@H](Cc2c[nH]c3ccccc23)NC(=O)[C@H](C)NC(=O)[C@H](Cc2ccccc2)NC(=O)CN)C(C)C)CSSC[C@@H](C(=O)N[C@@H](Cc2cnc[nH]2)C(=O)N[C@@H](CCCNC(=N)N)C(=O)N[C@@H](CCCNC(=N)N)C(=O)N[C@@H](C)C(=O)N[C@@H](CC(N)=O)C(N)=O)NC(=O)[C@H](C(C)C)NC(=O)[C@H](CCCNC(=N)N)NC1=O, the breathing score was 0 (ICR mouse; ip, 5 mg/kg; direction not given).
The Cmax of CCC[C@@](N)(CO)CCc1ccc(OCCCCCC(C)C)cc1 is reported as 428 nM (dog, male hounds, plasma; oral capsule, 15 mg/kg, geometric mean).
COc1cc2c(Oc3ccc4[nH]c(C)cc4c3F)ccnc2cc1OCC1(N)CC1 gave a Dizzy incidence of 9.1% (paediatric refractory sarcoma patients; 12 mg).
For C[C@]1(O)C[C@@](N)(c2ccc(-c3nc4n(c3-c3ccccc3)COc3ccncc3-4)cc2)C1, “patients with Hyperphosphatemia TEAE” read 0% (human, advanced or metastatic solid tumours; 16 mg once daily, dose-response cohort).
For CC[C@H](C)[C@@H]1NC(=O)[C@@H]2CCCN2C(=O)[C@H](CC(C)C)NC(=O)[C@H](CC(C)C)NC(=O)CNC(=O)[C@@H](NC(=O)[C@@H](NC(=O)[C@H](CC(=O)O)NC(=O)CNC(=O)[C@@H](NC(=O)[C@H](C)NC(=O)CNC(=O)[C@H](CCCCN)NC(=O)[C@H](CC(C)C)NC(=O)[C@H](CC(C)C)NC(=O)[C@H](CCCCN)NC(=O)CNC(=O)[C@@H](NC(=O)[C@@H](N)CC(C)C)C(C)C)C(C)C)C(C)C)CSSC[C@@H](C(=O)O)NC1=O, “log2 fold change” read 0.995 (RNA-seq, measured: Casp1; mouse, traumatic brain injury model, frontal cortex and hippocampus; dose not given; reference: TBI alone).
COc1ccc(C[C@@H]2NC(=O)[C@H]([C@@H](C)O)NC(=O)[C@@H]3[C@@H]4CCN3C(=O)[C@@H]3Cc5cn(c6ccc(F)cc56)CCCCCCN(Cc5ccc(cc5)CCNC(=O)[C@]5(C)CCCN5C2=O)C(=O)CCC(=O)N[C@@H](C)C(=O)N[C@H](CNC(=O)CCCCC[N+](C)(C)C)C(=O)N[C@@H](Cc2cccc(c2)CNC(=O)CO4)C(=O)N3)cc1: “participants with adverse event” 6.5% (measured: impaired fasting glucose; human; dose not given).
CC[C@H](C)[C@H](NC(=O)[C@H](Cc1ccccc1)NC(=O)[C@H](CCC(=O)O)NC(=O)[C@H](CCCNC(=N)N)NC(=O)[C@H](C)NC(=O)[C@H](C)NC(=O)[C@H](CCC(N)=O)NC(=O)[C@H](CCC(=O)O)NC(=O)[C@H](CCC(=O)O)NC(=O)[C@H](CC(C)C)NC(=O)[C@H](Cc1ccc(O)cc1)NC(=O)[C@H](CO)NC(=O)[C@H](CO)NC(=O)[C@@H](NC(=O)[C@H](CC(=O)O)NC(=O)[C@H](CO)NC(=O)[C@@H](NC(=O)[C@H](Cc1ccccc1)NC(=O)[C@@H](NC(=O)CNC(=O)[C@H](CCC(=O)O)NC(=O)[C@H](C)NC(=O)CCc1c[nH]cn1)[C@@H](C)O)[C@@H](C)O)C(C)C)C(=O)N[C@@H](C)C(=O)N[C@@H](Cc1c[nH]c2ccccc12)C(=O)N[C@@H](CC(C)C)C(=O)N[C@H](C(=O)N[C@@H](CCCNC(=N)N)C(=O)NCC(=O)N[C@@H](CCCNC(=N)N)C(=O)N[C@@H](CCCCNC(=O)COCCOCCNC(=O)COCCOCCNC(=O)CC[C@H](NC(=O)CCCCCCCCCCCCCCCCC(=O)O)C(=O)O)C(=O)NCC(=O)NCC(=O)N[C@@H](CO)C(=O)N[C@@H](CCCCNc1c(NCCCCCN(O)C(=O)CCC(=O)NCCCCCN(O)C(=O)CCC(=O)NCCCCCN(O)C(C)=O)c(=O)c1=O)C(=O)O)C(C)C [zirconium-89 labelled] has a tissue uptake of 0.37 %ID/g (gamma counting; rat, stomach-duodenum; subcutaneous, 3 nmol/kg, 24 h).
For Clc1ccc2nc(N3CCC(NCCc4cccnc4)CC3)sc2c1, the maximum response was -17.2% (Vero-E6; CellTiter-Glo ATP; 72 h, retest 8-point duplicates; reference: DMSO 0%, hyamine -100%, more negative, more toxic).
CCCCCCCCCCCCCCCC(=O)N[C@@H](CCC(=O)NCCCC[C@H](NC(=O)[C@H](CC(=O)O)NC(=O)[C@H](CO)NC(=O)[C@@H](NC(=O)[C@H](Cc1ccccc1)NC(=O)[C@@H](NC(=O)CNC(=O)[C@H](CCC(N)=O)NC(=O)[C@H](CO)NC(=O)[C@@H](N)Cc1c[nH]cn1)[C@@H](C)O)[C@@H](C)O)C(=O)N[C@@H](CO)C(=O)N[C@@H](CCC(=O)O)C(=O)N[C@@H](Cc1ccc(O)cc1)C(=O)N[C@@H](CC(C)C)C(=O)N[C@@H](CC(=O)O)C(=O)N[C@@H](CO)C(=O)N[C@@H](CCC(=O)O)C(=O)N[C@@H](CCCNC(=N)N)C(=O)N[C@@H](C)C(=O)N[C@@H](CCCNC(=N)N)C(=O)N[C@@H](CC(=O)O)C(=O)N[C@@H](Cc1ccccc1)C(=O)N[C@H](C(=O)N[C@@H](C)C(=O)N[C@@H](Cc1c[nH]c2ccccc12)C(=O)N[C@@H](CC(C)C)C(=O)N[C@@H](CCC(=O)O)C(=O)N[C@@H](C)C(=O)NCC(=O)NCC(=O)O)C(C)C)C(=O)O — result for “injection site erythema”: 0% (human, CrCl ≥45 to <60 mL/min; sc, 100 µg single dose).
With CC(C)N(CCc1c[nH]c2cccc(OC(=O)CCCC(=O)O)c12)C(C)C.Cl the Tmax was 4.98 min (male beagle dog, plasma; intravenous, 1 mg/kg).
For COc1ccc(-c2[nH]c3c(OP(=O)([O-])[O-])c(OC)ccc3c2C(=O)c2cc(OC)c(OC)c(OC)c2)cc1OC.[Na+].[Na+], “time to death” read no more than 24 h (mouse, BALB/c female, 4T1-Luc tumour; intraperitoneal, 50 mg/kg).
For C[C@]1(CO)Cc2ncn(-c3ccc(C#N)c(Cl)c3)c2C(=O)O1, “subjects with drug-related dysgeusia” read 0% (human; 5 mg single dose).
For Cc1cccc(Cn2nc(C3CC3)c3c(NC(=O)c4cnc5cc(OCCN6CCN(C)CC6)ccn45)cccc32)n1, “adverse events incidence” read 18.2% (measured: Diarrhea; human platinum-resistant ovarian cancer; oral, dose not given, all-causality).
With COc1cc(Nc2ncc(F)c(Nc3ccc4c(n3)NC(=O)C(C)(C)O4)n2)cc(OC)c1OC the IC50 was greater than 10 µM (GRPR (Homo sapiens, UniProt P30550)).
CC(Nc1nc(N2CCN(CCN)CC2)nc2ccccc12)c1ccccc1 (centres unmarked) gave a maximum response of -11.5% (Vero-E6; CellTiter-Glo ATP; 72 h, retest 8-point duplicates; reference: DMSO 0%, hyamine -100%, more negative, more toxic).
Under “patients with decreased appetite”, O=C1Nc2cc3[nH]nc(-c4ccncc4)c3cc2CN1Cc1ccccc1 is recorded as 0% (CTCAE v4.03; advanced solid tumour patients; intravenous, 0.45 mg/kg, schedules 1/2).
For O=S(=O)(Nc1ccccc1)c1ccc(NC(=S)Nc2ccccc2)cc1, the chloride level was 110 mmol/L (female mouse, blood; oral, 20 mg/kg daily, 14 days).
With CCc1ccc(CC/C=C/c2ccc3c(c2)C(=O)CC3)cc1 the Fibrinogen was 3.4 g/L (Sprague-Dawley rat, male; oral, 120 mg/kg/day, 14 days).
CC(=O)N1CCC(C(=O)N2CCN3C(=O)c4cc(-c5ccccc5)ccc4NC(=O)C3C2)CC1 (centres unmarked) — result for “revertants per plate”: 15.5 (Salmonella typhimurium; TA1535; 1581 µg/plate, together with: rat liver S9).
Under tolerability, O=C1CC[C@H](N2Cc3cc(N4CCN(CC5CCN(c6ccc([C@@H]7c8ccc(O)cc8CC[C@@H]7c7ccccc7)cc6)CC5)CC4)ccc3C2=O)C(=O)N1 is recorded as “not toxic” (healthy human; oral, dose not given, single doses without rosuvastatin).
For CO[C@H]1C[C@@H]2CC[C@@H](C)[C@@](O)(O2)C(=O)C(=O)N2CCCC[C@H]2C(=O)O[C@H]([C@H](C)C[C@@H]2CC[C@@H](OC(=O)NCCOCCOCCOCCOCCOCCOCCOCCOCCC(=O)N3CCc4cc(Cn5nc(-c6ccc7oc(N)nc7c6)c6c(N)ncnc65)ccc4C3)[C@H](OC)C2)C[C@@H](O)[C@H](C)/C=C(\C)[C@@H](O)[C@@H](OC)C(=O)[C@H](C)C[C@H](C)/C=C/C=C/C=C/1C, “decreased appetite leading to dose reduction” read 0% (patients with advanced solid tumours; intravenous, 8 mg weekly, any grade).
CCN1CC2(CCN(CCc3cc(F)ccc3F)CC2)O[C@H](C)C1=O has a tmax of 12 ± 6 min (ferret, plasma; intraperitoneal, 1 mg/kg).
The inhibition of COc1ccc(N2C(=O)N(c3c(C)cccc3Cl)Cc3cnc(Nc4ccc(C5CCN(C)CC5)cc4OC)nc32)nc1 is reported as 2.53% (LATS2 (Homo sapiens, UniProt Q9NRM7); kinase activity; 0.5 µM).
For CC(=O)c1c(C)c2cnc(Nc3ccc(C4CCN(CCS(C)(=O)=O)CC4)cn3)nc2n(C2CCCC2)c1=O, “patients with TRAE grade ≥3” read 66.7% (HR+/HER2- advanced breast cancer patients; oral, 150 mg).
Cn1cc(-c2nc(N[C@@H]3CCCC[C@@H]3N)c(F)c3c2C(=O)NC3)cn1 — result for “hemorrhagic adverse events”: 11% (measured: Rectal haemorrhage; patients with relapsed or refractory AML; oral, 160 mg once daily).
COC[C@@H](CC(C)C)NC(=O)c1ccc(C)c(C)c1: “micronucleated PCE per 1000 PCE” 0.4 (Hsd:ICR (CD-1) mouse, male, bone marrow; oral, 2000 mg/kg, 48 h).
CC(C)(O)c1cc(Nc2cc(Oc3cn(C4CC4)nc3C3CCOCC3)ccn2)ccn1 — result for “treatment-emergent adverse events”: 5% (Thrombocytopenia; advanced cancer patients, grade 4 glioma expansion; oral, 50 mg twice daily, all causality any grade).
The metabolism rate of c1ccc2cc3c(ccc4ccccc43)cc2c1 is reported as 21.6 pmol/min/mg (pooled human liver microsomes; 2.5 µM, pH 7.4).
C[C@@H]1OC(=O)NN=C1c1ccc(-c2ccc(F)cc2)c(C(F)(F)F)c1: “patients with adverse event” 0% (phase I trial, measured: Dyspnoea worst grade 2; human patients; 5 mg loading then 0.25 mg daily).
For O=C(c1ccc(Cl)cc1)N1CCN2C(=O)N(OC(=O)N3CCOc4ccccc43)C(=O)C2C1 (centres unmarked), the median ratio was 1.05 (ABHD11 (Homo sapiens, UniProt Q8NFV4); enzyme activity, inhibitor, MS-based ABPP; SW-620 conditioned medium; 10 µM, 1 h, 37 °C; reference: compound over DMSO, lower = stronger inhibition).
For COc1ccc(-c2c(-c3ccc(C#N)c(F)c3)nc(N3CCC(N)CC3)n(C)c2=O)cc1F, “treatment-related adverse event incidence” read 0% (measured: Pruritus; human patients; oral, dose not given, grade 3 to 4, dose escalation, NG).

A few entries again:
COc1ccc(C[C@@H]2NC(=O)[C@H]([C@@H](C)O)NC(=O)[C@@H]3[C@@H]4CCN3C(=O)[C@@H]3Cc5cn(c6ccc(F)cc56)CCCCCCN(Cc5ccc(cc5)CCNC(=O)[C@]5(C)CCCN5C2=O)C(=O)CCC(=O)N[C@@H](C)C(=O)N[C@H](CNC(=O)CCCCC[N+](C)(C)C)C(=O)N[C@@H](Cc2cccc(c2)CNC(=O)CO4)C(=O)N3)cc1: “participants with adverse event” 6.5% (measured: impaired fasting glucose; human; dose not given).
CC[C@H](C)[C@H](NC(=O)[C@H](Cc1ccccc1)NC(=O)[C@H](CCC(=O)O)NC(=O)[C@H](CCCNC(=N)N)NC(=O)[C@H](C)NC(=O)[C@H](C)NC(=O)[C@H](CCC(N)=O)NC(=O)[C@H](CCC(=O)O)NC(=O)[C@H](CCC(=O)O)NC(=O)[C@H](CC(C)C)NC(=O)[C@H](Cc1ccc(O)cc1)NC(=O)[C@H](CO)NC(=O)[C@H](CO)NC(=O)[C@@H](NC(=O)[C@H](CC(=O)O)NC(=O)[C@H](CO)NC(=O)[C@@H](NC(=O)[C@H](Cc1ccccc1)NC(=O)[C@@H](NC(=O)CNC(=O)[C@H](CCC(=O)O)NC(=O)[C@H](C)NC(=O)CCc1c[nH]cn1)[C@@H](C)O)[C@@H](C)O)C(C)C)C(=O)N[C@@H](C)C(=O)N[C@@H](Cc1c[nH]c2ccccc12)C(=O)N[C@@H](CC(C)C)C(=O)N[C@H](C(=O)N[C@@H](CCCNC(=N)N)C(=O)NCC(=O)N[C@@H](CCCNC(=N)N)C(=O)N[C@@H](CCCCNC(=O)COCCOCCNC(=O)COCCOCCNC(=O)CC[C@H](NC(=O)CCCCCCCCCCCCCCCCC(=O)O)C(=O)O)C(=O)NCC(=O)NCC(=O)N[C@@H](CO)C(=O)N[C@@H](CCCCNc1c(NCCCCCN(O)C(=O)CCC(=O)NCCCCCN(O)C(=O)CCC(=O)NCCCCCN(O)C(C)=O)c(=O)c1=O)C(=O)O)C(C)C [zirconium-89 labelled] has a tissue uptake of 0.37 %ID/g (gamma counting; rat, stomach-duodenum; subcutaneous, 3 nmol/kg, 24 h).
